{"data": "Published values gathered from unrelated publications", "uncharacterized protein": "uncharacterized protein (Spodoptera exigua, UniProt F1CEY0)", "note": "Protocols differ between the studies behind these lines. “And” joins repeats or separate records; there may be more than shown. ± gives the spread as reported.", "sequence of UniProt P51575 (whole entry, unmodified, looked up)": "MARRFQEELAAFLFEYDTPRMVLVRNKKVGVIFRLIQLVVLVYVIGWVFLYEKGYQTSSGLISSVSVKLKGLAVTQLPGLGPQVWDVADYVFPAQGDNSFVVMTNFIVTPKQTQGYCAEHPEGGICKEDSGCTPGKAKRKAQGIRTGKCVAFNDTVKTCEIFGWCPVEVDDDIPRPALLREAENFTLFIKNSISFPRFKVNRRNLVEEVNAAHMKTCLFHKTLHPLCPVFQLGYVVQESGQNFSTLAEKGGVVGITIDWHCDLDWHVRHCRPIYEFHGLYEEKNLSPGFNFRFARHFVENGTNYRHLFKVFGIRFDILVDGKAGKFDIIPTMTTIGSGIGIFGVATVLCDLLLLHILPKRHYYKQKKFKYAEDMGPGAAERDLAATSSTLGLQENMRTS", "sequence of UniProt P19793 (whole entry, looked up)": "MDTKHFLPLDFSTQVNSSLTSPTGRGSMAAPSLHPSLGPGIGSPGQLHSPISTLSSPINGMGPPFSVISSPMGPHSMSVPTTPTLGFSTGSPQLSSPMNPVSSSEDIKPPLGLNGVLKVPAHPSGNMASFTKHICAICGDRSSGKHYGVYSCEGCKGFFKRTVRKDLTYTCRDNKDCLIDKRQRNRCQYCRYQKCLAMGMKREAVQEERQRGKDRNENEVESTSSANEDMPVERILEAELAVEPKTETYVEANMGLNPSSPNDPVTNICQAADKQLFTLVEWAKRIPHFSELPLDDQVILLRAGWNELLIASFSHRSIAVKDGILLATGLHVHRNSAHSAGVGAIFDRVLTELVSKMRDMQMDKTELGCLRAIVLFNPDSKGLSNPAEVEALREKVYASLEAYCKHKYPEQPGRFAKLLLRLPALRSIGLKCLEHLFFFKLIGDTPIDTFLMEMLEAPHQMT", "sequence of UniProt Q13164 (whole entry, looked up)": "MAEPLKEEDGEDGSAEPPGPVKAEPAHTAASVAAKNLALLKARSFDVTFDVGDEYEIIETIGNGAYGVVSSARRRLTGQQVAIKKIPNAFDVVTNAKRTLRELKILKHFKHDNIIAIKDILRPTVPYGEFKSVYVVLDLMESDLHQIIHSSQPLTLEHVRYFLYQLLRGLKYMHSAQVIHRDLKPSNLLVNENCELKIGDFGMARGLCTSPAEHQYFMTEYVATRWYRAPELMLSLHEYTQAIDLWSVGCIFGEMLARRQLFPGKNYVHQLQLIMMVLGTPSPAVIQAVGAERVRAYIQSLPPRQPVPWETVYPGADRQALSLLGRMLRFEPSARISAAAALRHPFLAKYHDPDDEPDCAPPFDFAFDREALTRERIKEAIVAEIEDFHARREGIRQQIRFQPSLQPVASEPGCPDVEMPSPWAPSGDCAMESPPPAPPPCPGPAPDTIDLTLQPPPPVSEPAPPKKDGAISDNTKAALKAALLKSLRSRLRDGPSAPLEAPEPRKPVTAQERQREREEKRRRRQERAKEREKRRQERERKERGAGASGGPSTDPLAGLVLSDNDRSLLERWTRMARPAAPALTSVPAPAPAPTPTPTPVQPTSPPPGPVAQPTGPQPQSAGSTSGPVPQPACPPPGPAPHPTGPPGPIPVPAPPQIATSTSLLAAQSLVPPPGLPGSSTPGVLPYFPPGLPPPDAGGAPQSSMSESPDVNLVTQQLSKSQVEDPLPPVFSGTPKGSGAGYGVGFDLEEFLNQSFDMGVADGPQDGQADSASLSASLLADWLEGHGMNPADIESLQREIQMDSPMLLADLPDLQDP", "sequence of UniProt P29317 (whole entry, looked up)": "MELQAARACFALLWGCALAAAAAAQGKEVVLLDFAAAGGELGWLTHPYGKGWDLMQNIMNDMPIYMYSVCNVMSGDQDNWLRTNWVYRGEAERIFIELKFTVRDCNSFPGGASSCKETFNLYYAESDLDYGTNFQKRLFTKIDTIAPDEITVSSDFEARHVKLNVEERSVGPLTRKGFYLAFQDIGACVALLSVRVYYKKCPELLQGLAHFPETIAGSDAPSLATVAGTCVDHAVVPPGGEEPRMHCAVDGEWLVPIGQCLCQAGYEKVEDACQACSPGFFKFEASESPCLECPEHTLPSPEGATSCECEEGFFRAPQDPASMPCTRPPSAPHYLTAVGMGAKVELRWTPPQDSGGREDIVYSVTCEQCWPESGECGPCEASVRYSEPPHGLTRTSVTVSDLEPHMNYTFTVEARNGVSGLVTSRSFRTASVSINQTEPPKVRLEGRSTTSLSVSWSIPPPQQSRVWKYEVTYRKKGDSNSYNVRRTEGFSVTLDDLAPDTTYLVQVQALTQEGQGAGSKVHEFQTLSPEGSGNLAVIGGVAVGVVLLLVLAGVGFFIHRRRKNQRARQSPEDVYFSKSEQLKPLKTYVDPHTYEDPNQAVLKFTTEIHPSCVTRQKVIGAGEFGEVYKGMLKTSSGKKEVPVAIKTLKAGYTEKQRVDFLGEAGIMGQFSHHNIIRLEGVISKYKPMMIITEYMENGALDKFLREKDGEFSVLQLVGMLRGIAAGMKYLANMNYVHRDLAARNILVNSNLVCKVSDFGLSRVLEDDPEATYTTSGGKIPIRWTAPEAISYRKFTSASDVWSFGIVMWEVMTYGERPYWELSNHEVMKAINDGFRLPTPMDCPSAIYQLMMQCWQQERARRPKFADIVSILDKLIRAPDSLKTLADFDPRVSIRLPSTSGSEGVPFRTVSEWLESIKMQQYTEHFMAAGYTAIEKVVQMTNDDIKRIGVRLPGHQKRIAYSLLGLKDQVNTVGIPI", "sequence of UniProt Q16774 (whole entry, unmodified, looked up)": "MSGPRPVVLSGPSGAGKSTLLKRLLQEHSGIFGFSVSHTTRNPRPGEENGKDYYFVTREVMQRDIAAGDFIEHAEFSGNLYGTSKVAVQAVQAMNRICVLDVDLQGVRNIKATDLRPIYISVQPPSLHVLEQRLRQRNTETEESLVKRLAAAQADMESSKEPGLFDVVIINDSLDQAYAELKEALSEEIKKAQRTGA", "sequence of UniProt P52497 (whole entry, looked up)": "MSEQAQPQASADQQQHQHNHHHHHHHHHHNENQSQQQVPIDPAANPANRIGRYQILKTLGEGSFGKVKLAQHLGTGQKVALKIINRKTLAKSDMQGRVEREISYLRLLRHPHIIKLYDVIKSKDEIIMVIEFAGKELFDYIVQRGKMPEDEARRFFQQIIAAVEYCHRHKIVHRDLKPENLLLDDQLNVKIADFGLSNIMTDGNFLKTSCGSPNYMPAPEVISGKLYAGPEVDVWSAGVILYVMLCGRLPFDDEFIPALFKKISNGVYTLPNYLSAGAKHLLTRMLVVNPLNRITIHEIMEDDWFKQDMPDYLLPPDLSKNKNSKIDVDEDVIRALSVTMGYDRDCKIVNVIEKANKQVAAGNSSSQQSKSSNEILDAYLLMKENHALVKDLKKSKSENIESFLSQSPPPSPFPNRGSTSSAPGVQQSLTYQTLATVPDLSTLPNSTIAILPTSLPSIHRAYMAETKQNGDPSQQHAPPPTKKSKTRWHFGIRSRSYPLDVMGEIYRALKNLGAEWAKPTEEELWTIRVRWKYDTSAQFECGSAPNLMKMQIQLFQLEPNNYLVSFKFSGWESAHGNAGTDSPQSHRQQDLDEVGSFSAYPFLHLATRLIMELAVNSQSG", "sequence of UniProt P00441 (whole entry, unmodified, looked up)": "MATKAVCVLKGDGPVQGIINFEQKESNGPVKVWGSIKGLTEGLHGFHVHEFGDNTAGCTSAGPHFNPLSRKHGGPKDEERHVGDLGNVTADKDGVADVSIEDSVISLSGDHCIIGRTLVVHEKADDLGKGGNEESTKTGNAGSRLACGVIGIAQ", "sequence of UniProt Q06187 (whole entry, looked up)": "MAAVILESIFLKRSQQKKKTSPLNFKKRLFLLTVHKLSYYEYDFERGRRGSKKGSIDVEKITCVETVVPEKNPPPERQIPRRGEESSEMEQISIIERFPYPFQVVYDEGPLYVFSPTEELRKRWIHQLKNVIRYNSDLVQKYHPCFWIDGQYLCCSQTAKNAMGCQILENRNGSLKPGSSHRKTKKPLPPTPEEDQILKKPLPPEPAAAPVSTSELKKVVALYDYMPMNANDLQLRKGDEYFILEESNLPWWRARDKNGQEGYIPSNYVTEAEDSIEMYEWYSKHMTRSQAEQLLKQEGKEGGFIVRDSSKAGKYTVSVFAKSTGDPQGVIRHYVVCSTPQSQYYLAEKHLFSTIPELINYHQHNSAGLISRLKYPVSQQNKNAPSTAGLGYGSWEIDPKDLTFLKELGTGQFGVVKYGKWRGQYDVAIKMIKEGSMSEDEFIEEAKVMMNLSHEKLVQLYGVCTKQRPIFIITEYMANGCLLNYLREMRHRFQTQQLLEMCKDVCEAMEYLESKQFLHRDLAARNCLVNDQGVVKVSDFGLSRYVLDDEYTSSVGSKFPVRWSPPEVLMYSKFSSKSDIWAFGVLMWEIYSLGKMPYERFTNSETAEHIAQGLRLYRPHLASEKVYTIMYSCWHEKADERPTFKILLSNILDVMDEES"}
{"SMILES": "COc1ccc(F)cc1C(=O)NCc1ccc(-c2nn([C@@H](C)C(F)(F)F)c(N)c2C(N)=O)cc1", "target": "Tyrosine-protein kinase BTK (BTK, Homo sapiens, UniProt Q06187)", "assay": "competitive chemoproteomics", "system": "live PBMCs", "setting": "0.1 µM", "quantity": "probe binding reduction", "value": "90%"}
{"SMILES": "Nc1ncnc2c1ncn2[C@@H]1O[C@H](COP(=O)(O)CP(=O)(O)OP(=O)(O)O)[C@@H](O)[C@H]1O", "target": "P2X purinoceptor 1 (P2RX1, Homo sapiens, UniProt P51575, K136A)", "assay": "saturation binding", "system": "HEK293", "setting": "79 nM", "quantity": "specific binding", "value": "2840 CCPM and 3030 CCPM"}
{"SMILES": "C=CC(=O)N1CCC[C@@H](n2nc(-c3ccc(Oc4ccccc4)cc3)c3c(N)ncnc32)C1", "target": "Ephrin type-A receptor 2 (EPHA2, Homo sapiens, UniProt P29317)", "setting": "1 µM", "quantity": "remaining activity", "value": "110%"}
{"SMILES": "Cc1n[nH]c2ccc(-c3cc(OC[C@@H](N)Cc4ccccc4)cnc3-c3ccoc3)cc12", "target": "Carbon catabolite-derepressing protein kinase (SNF1, Candida albicans, UniProt P52497)", "assay": "kinase binding, competitor, MIB/MS competition, item: SNF1", "system": "Candida albicans cell lysate", "setting": "1 µM", "scale": "reference: DMSO", "quantity": "log2 fold change", "value": -0.136}
{"SMILES": "[O-][S+]1CCCCS1 (stereo not drawn)", "target": "Superoxide dismutase [Cu-Zn] (SOD1, Homo sapiens, UniProt P00441, G94A)", "assay": "LC-MS", "system": "human whole blood", "setting": "50 µM, 1 h, 37 °C", "quantity": "SOD1 dimer fraction", "value": "9.41%"}
{"SMILES": "CC12CCC(CC1)C(C)(C)O2", "target": "uncharacterized protein", "assay": "binding, competitor, fluorescence displacement", "setting": "20 µM, pH 7.4, added: 1-NPN 20 µM", "scale": "reference: 1-NPN alone", "quantity": "relative fluorescence", "value": "70%"}
{"SMILES": "C1CCCC1.C1CCCC1.[Cl][W][Cl]", "target": "Albumin (ALB, Homo sapiens, UniProt P02768)", "assay": "binding, fluorescence quenching", "setting": "310 K", "quantity": "Gibbs free energy change", "value": "-5.22 kcal/mol"}
{"SMILES": "CC(=O)NCCCC[C@H](NC(=O)CNC(=O)[C@H](CCCNC(=N)N)NC(C)=O)C(=O)Nc1ccc2c(C)cc(=O)oc2c1", "target": "human Y225F/Y782F mutant enzyme", "assay": "substrate, fluorogenic", "quantity": "Km", "value": "56 ± 9 µM"}
{"SMILES": "N[C@H](CNC(=O)c1cc(Br)c(-c2ccccc2F)s1)C(=O)O", "target": "Glutamate receptor ionotropic, NMDA 1, with GluN2D (Grin1, Rattus norvegicus, UniProt P35439)", "setting": "added: glutamate 300 µM", "quantity": "Hill slope", "value": 1.62}
{"SMILES": "Nc1ncnc2c1ncn2[C@@H]1O[C@H](CO[P@](=O)(O)O[P@](=O)(O)O[P@@](=O)(O)S)[C@@H](O)[C@H]1O", "target": "GUK1 (Homo sapiens, UniProt Q16774)", "assay": "binding, isothermal titration calorimetry", "setting": "molar ratio 1.741, fitted curve", "quantity": "ΔH", "value": "-0.581 kcal/mol"}
{"SMILES": "O=c1nc(SCc2cc(F)cc(C(F)(F)F)c2)nc(SCc2ccc3nc(Cl)ccc3c2)[nH]1", "target": "DNA topoisomerase 2-alpha (TOP2A, Homo sapiens, UniProt P11388)", "assay": "DNA relaxation", "setting": "62.5 µM, replicate 1", "quantity": "relaxed DNA", "value": "0%"}
{"SMILES": "C#Cc1c(F)ccc2cc(O)cc(-c3ncc4c(N5CC6CCC(C5)N6)nc(OC[C@@]56CCCN5C[C@H](F)C6)nc4c3F)c12", "target": "GTPase KRas, GppNHp-bound (KRAS, Homo sapiens, UniProt P01116, Q61R)", "scale": "reference: Q61R-GppNHp", "quantity": "affinity loss", "value": "5 to 10 fold"}
{"SMILES": "CCN1CCN(c2cc(N3CCN(CC)CC3)nc(NCCNc3ccnc4cc(Cl)ccc34)n2)CC1", "target": "Retinoic acid receptor RXR-alpha (RXRA, Homo sapiens, UniProt P19793)", "assay": "reporter gene, Gal4 hybrid reporter", "setting": "20 µM", "scale": "reference: vehicle", "quantity": "activation", "value": "1.79 fold"}
{"SMILES": "CC[C@@H]1[C@H](F)C(=O)N[C@@H]1COc1nccc2cc(C(N)=O)c(OC)cc12", "target": "Mitogen-activated protein kinase 7 (MAPK7, Homo sapiens, UniProt Q13164)", "assay": "ATP-site probe binding, ActivX profiling, item: Erk5", "system": "THP-1 cell lysate", "setting": "0.01 mM, Lys2 site", "quantity": "inhibition", "value": "-4.2%"}
{"SMILES": "C=CC(C)(O)CCC=C(C)CCC=C(C)C (mixture of isomers)", "target": "uncharacterized protein", "assay": "binding, competitor, fluorescence displacement", "setting": "20 µM, pH 7.4, added: 1-NPN 20 µM", "scale": "reference: 1-NPN alone", "quantity": "relative fluorescence", "value": "66.5%"}
{"note": "Some of these lines once more:"}
{"SMILES": "C=CC(=O)N1CCC[C@@H](n2nc(-c3ccc(Oc4ccccc4)cc3)c3c(N)ncnc32)C1", "target": "Ephrin type-A receptor 2 (EPHA2, Homo sapiens, UniProt P29317)", "setting": "1 µM", "quantity": "remaining activity", "value": "110%"}
{"SMILES": "Cc1n[nH]c2ccc(-c3cc(OC[C@@H](N)Cc4ccccc4)cnc3-c3ccoc3)cc12", "target": "Carbon catabolite-derepressing protein kinase (SNF1, Candida albicans, UniProt P52497)", "assay": "kinase binding, competitor, MIB/MS competition, item: SNF1", "system": "Candida albicans cell lysate", "setting": "1 µM", "scale": "reference: DMSO", "quantity": "log2 fold change", "value": -0.136}
